{"data": "Measured values collected from several papers", "note": "Numbered parts are unrelated; each lists some results of a single study."}
{"data": "Study 1", "target": "Histone acetyltransferase KAT6A, winged helix 2, GST fusion (KAT6A, Homo sapiens, UniProt Q92794, residues 85-181)", "technique": "protein binding microarray", "molecule type": "double-stranded DNA, one strand shown", "medium": "in vitro", "tested at": "not given", "notes": "8-mer, flanks averaged, mean of 2 arrays, mostly near background", "relative to": "not given", "reading": "higher = stronger binding", "Residues (chain)": "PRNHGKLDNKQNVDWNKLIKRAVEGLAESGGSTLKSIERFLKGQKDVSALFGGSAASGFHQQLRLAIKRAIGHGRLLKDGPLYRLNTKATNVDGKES"}
{"Oligonucleotide": "GGTCCGCA", "E-score": 0.16}
{"Oligonucleotide": "AAAGCATC", "E-score": 0.0558}
{"Oligonucleotide": "TAAGGAGA", "E-score": -0.058}
{"Oligonucleotide": "CGAAGTTA", "E-score": -0.0952}
{"Oligonucleotide": "CAGACTAA", "E-score": -0.0197}
{"Oligonucleotide": "CGCGCTCA", "E-score": 0.145}
{"Oligonucleotide": "TGAACACA", "E-score": -0.0409}
{"Oligonucleotide": "TTCCGCAA", "E-score": 0.204}
{"data": "Study 2", "organism": "SARS-CoV-2", "observed": "cytopathic effect", "cells": "Vero E6", "tested at": "10 µM"}
{"SMILES": "CC(CN1CC(=O)NC(=O)C1)N1CC(=O)NC(=O)C1 (centres unmarked)", "inhibition": "0.06%"}
{"SMILES": "C/N=c1/nc(-c2ccccc2)n(-c2ccccc2)s1", "inhibition": "-11.7%"}
{"SMILES": "O=C(NC(=S)N1CCCc2ccccc21)c1ccccc1", "inhibition": "-3.2%"}
{"data": "Study 3", "cell line": "HEK-293T/ACE2", "tested at": "concentration not given", "time": "16 (unit not given)", "relative to": "vehicle"}
{"Compound": "N=C(N)c1ccc(OCCCCCOc2ccc(C(=N)N)cc2)cc1", "viability [%]": 89.2}
{"Compound": "CN(C)CCc1c[nH]c2ccc(Cn3cncn3)cc12", "viability [%]": 99}
{"Compound": "CCCSc1nc(N[C@@H]2C[C@H]2c2ccc(F)c(F)c2)c2nnn([C@@H]3C[C@H](OCCO)[C@@H](O)[C@H]3O)c2n1", "viability [%]": 107}
{"Compound": "CCc1c2c(nc3ccc(OC(=O)N4CCC(N5CCCCC5)CC4)cc13)-c1cc3c(c(=O)n1C2)COC(=O)[C@]3(O)CC", "viability [%]": 87.3}
{"Compound": "CC[C@]1(O)C[C@@H]2CN(CCc3c([nH]c4ccccc34)[C@@](C(=O)OC)(c3cc4c(cc3OC)N(C)[C@H]3[C@@](O)(C(=O)OC)[C@H](OC(C)=O)[C@]5(CC)C=CCN6CC[C@]43[C@@H]65)C2)C1", "viability [%]": -0.0317}
{"data": "Mixed results"}
{"Molecule": "tyrphostin AG 835", "target": "Replicase polyprotein 1ab, nsp12 with nsp7/nsp8 (rep, Severe acute respiratory syndrome coronavirus 2, UniProt P0DTD1)", "assay": "RdRp activity, inhibitor", "conditions": "20 µM", "quantity": "inhibition", "result": "91.4%"}
{"note": "Excerpt of the above (mixed results):"}
{"Molecule": "tyrphostin AG 835", "target": "Replicase polyprotein 1ab, nsp12 with nsp7/nsp8 (rep, Severe acute respiratory syndrome coronavirus 2, UniProt P0DTD1)", "assay": "RdRp activity, inhibitor", "conditions": "20 µM", "quantity": "inhibition", "result": "91.4%"}
